Experimental data of several laboratories.
Protocols differ between the studies behind these lines. “And” joins repeats or separate records; there may be more than shown. Numbers after ± are the reported error.
GLP1R: Glucagon-like peptide 1 receptor (GLP1R, Homo sapiens, UniProt P43220)

C[C@@H]1CCO[C@H]2Cn3cc(C(=O)NCc4ccc(F)cc4F)c(=O)c(O)c3C(=O)N12
inhibition (Solute carrier family 22 member 3 (SLC22A3, Homo sapiens, UniProt O75751); transport; MDCK-II, transfected; 50 µM, together with: MPP+ 2 µM): 6.56%

NS(=O)(=O)c1cccc(-c2ccc(C3CCCCC3)cc2)c1
hepatic clearance (hepatocyte stability; cryopreserved human hepatocytes; 1 µM): 17 mL/min/kg

COc1cc(Nc2ncc3c(n2)-c2ccc(Cl)cc2C(c2c(F)cccc2OC)=NC3)ccc1C(=O)O
remaining activity (IRAK4; kinase activity; 1 µM): 91%

O=C(COP(=O)(O)O)[C@@H](O)[C@H](O)[C@H](O)COP(=O)(O)O
thermal stability ratio (Cytoplasmic dynein 1 light intermediate chain 2 (Homo sapiens, UniProt O43237); thermal proteome profiling, measured: DYNC1LI2; HepG2 cell lysate; concentration not given, 57 over 37 °C, mean; baseline: compound over control): 0.504

C[C@@H]1CCN(C(=O)CCl)[C@@H](C(N)=O)C1
cysteine occupancy (human NEDD9 full length; LC-MS peptide mapping, measured: Cys18; 50 µM, 4 h): 28.9%

O=c1nc(SCc2cc(F)cc(C(F)(F)F)c2)nc(SCc2ccc3nc(Cl)ccc3c2)[nH]1
relaxed DNA (DNA topoisomerase 2-alpha (TOP2A, Homo sapiens, UniProt P11388); DNA relaxation; 7.8 µM, replicate 1): 99.5%

Cc1ccc(C(=O)Nc2ccc3ccccc3c2)o1
reversal potential (Otop1 (Mus musculus, UniProt Q80VM9); proton current, voltage ramp patch-clamp; 10 µM, NMDG bath cation): 56.9 mV

Cn1cc(-c2ccc(-c3cncc(Cl)c3N3CCC4(CCNC4=O)CC3)cc2)cn1
log2 fold change (COLO 205; gene expression, microarray, measured: FOXM1 mRNA; concentration not given, 2 h; baseline: untreated cells): -1.77

COCCC(=O)Nc1ccc([C@H]2[C@@H](F)[C@@H](F)C[C@@H](F)[C@H]2F)cc1
hepatic clearance (liver microsome stability; mouse liver microsomes; 1 µM): 35 mL/min/kg

NCC[C@H](O)C(=O)N[C@@H]1C[C@H](N)[C@@H](O[C@H]2O[C@H](CN)[C@@H](O)[C@H](O)[C@H]2O)[C@H](O)[C@H]1O[C@H]1O[C@H](CO)[C@@H](O)[C@H](N)[C@H]1O
Stern-Volmer quenching constant (Albumin (ALB, Bos taurus, UniProt P02769); tryptophan fluorescence quenching; 10 to 60 µM, 289 K): 2.17 10³ M⁻¹

CCCCC[C@H](O)/C=C/[C@H]1C(=O)C[C@H](O)[C@@H]1C/C=C\CCCC(=O)O
activation (Prostaglandin D2 receptor (PTGDR, Homo sapiens, UniProt Q13258, D72N); agonist; 10 µM): 91.3%

CC1(C)S[C@@H]2[C@H](NC(=O)[C@H](N)c3ccccc3)C(=O)N2[C@H]1C(=O)O
Km (beta-lactamase RAD-1 (Riemerella anatipestifer); substrate, continuous spectrophotometric hydrolysis; 30 °C): 298 ± 27 µM

Nc1nc2c(ncn2[C@@H]2O[C@H](COP(=O)(O)O)[C@@H](O)[C@H]2O)c(=O)[nH]1
reaction velocity (GUK1 (Homo sapiens, UniProt Q16774); enzyme activity, NADH-coupled; 125 µM, together with: KCl 50 mM): 0.118 µM/s and 0.131 µM/s and 0.133 µM/s

NCCCS(=O)(=O)O
normalised MST signal (Sodium- and chloride-dependent taurine transporter (SLC6A6, Homo sapiens, UniProt P31641, Y138A); binding, microscale thermophoresis; 31.3 µM, room temperature, together with: 50 nM labelled protein; higher = more binding): 0.263

C=CC(=O)N1CCN(c2nc(OC[C@@H]3CCCN3C)nc3c(F)c(-c4nc(N)cc(C)c4C(F)(F)F)c(Cl)cc23)[C@@H](C)C1
kon (GTPase KRas, GDP-bound (KRAS, Homo sapiens, UniProt P01116)): 137000 ± 6800 M⁻¹ s⁻¹

COc1cc(N2CCC(N3CCN(C)CC3)CC2)ccc1Nc1ncc(Cl)c(Nc2ccccc2P(C)(C)=O)n1
protein level (ALK tyrosine kinase receptor/Echinoderm microtubule-associated protein-like 4 (Homo sapiens, UniProt Q9HC35+Q9UM73); degrader, immunoblotting, measured: ALK tyrosine kinase receptor/Echinoderm microtubule-associated protein-like 4; Ba/F3 EML4-ALK; concentration not given, 1 h, unit not given; baseline: untreated): 1.13 and 1.09 and 0.932

O=C(Nc1c[nH]nc1-c1nc2ccc(CN3CCOCC3)cc2[nH]1)NC1CC1
luminescence signal reduction (NanoBiT HiBiT/LgBiT luciferase; inhibitor, HiBiT luminescence counterscreen; conditioned medium only; 5 µM, 24 h; baseline: vehicle): -4.14%

CC[C@H](C)[C@H](NC(=O)[C@H](Cc1ccccc1)NC(=O)[C@H](CCC(=O)O)NC(=O)[C@H](CCCNC(=N)N)NC(=O)[C@H](C)NC(=O)[C@H](C)NC(=O)[C@H](CCC(N)=O)NC(=O)[C@H](CCC(=O)O)NC(=O)[C@H](CCC(=O)O)NC(=O)[C@H](CC(C)C)NC(=O)[C@H](Cc1ccc(O)cc1)NC(=O)[C@H](CO)NC(=O)[C@H](CO)NC(=O)[C@@H](NC(=O)[C@H](CC(=O)O)NC(=O)[C@H](CO)NC(=O)[C@@H](NC(=O)[C@H](Cc1ccccc1)NC(=O)[C@@H](NC(=O)CNC(=O)[C@H](CCC(=O)O)NC(=O)[C@H](C)NC(=O)CCc1cnc[nH]1)[C@@H](C)O)[C@@H](C)O)C(C)C)C(=O)N[C@@H](C)C(=O)N[C@@H](Cc1c[nH]c2ccccc12)C(=O)N[C@@H](CC(C)C)C(=O)N[C@H](C(=O)N[C@@H](CCCNC(=N)N)C(=O)NCC(=O)N[C@@H](CCCNC(=N)N)C(=O)N[C@@H](CCCCNC(=O)COCCOCCNC(=O)COCCOCCNC(=O)CC[C@H](NC(=O)CCCCCCCCCCCCCCCCC(=O)O)C(=O)O)C(=O)NCC(=O)NCC(=O)N[C@@H](CO)C(=O)N[C@@H](CCCCNC(=O)[C@H](CCCCNC(=O)[C@H](CCCCNc1c(NCCCCCN(O)C(=O)CCC(=O)NCCCCCN(O)C(=O)CCC(=O)NCCCCCN(O)C(C)=O)c(=O)c1=O)Nc1c(NCCCCCN(O)C(=O)CCC(=O)NCCCCCN(O)C(=O)CCC(=O)NCCCCCN(O)C(C)=O)c(=O)c1=O)NC(=O)[C@H](CCCCNc1c(NCCCCCN(O)C(=O)CCC(=O)NCCCCCN(O)C(=O)CCC(=O)NCCCCCN(O)C(C)=O)c(=O)c1=O)Nc1c(NCCCCCN(O)C(=O)CCC(=O)NCCCCCN(O)C(=O)CCC(=O)NCCCCCN(O)C(C)=O)c(=O)c1=O)C(=O)O)C(C)C
fold potency loss (GLP1R; agonist, CRE luciferase reporter; BHK cells; Zr-loaded DFO conjugate, together with: 0% HSA; baseline: parent peptide): 3.8

[O-][S+]1CCCCS1 (stereo not drawn)
SOD1 monomer fraction (Superoxide dismutase [Cu-Zn] (SOD1, Homo sapiens, UniProt P00441, G94A); LC-MS; human whole blood; 50 µM, 1 h, 37 °C): 90.6%

CS(=O)(=O)c1ccc2nc(-c3ccccc3)c(Nc3ccc(C(=O)O)cc3)n2c1
selectivity ratio (Tyrosyl-DNA phosphodiesterase 2 (TDP2, Homo sapiens, UniProt O95551); gel-based fluorescence; baseline: TDP1 IC50 over TDP2 IC50): 26

CC[C@H](C)[C@H](NC(=O)[C@H](Cc1ccccc1)NC(=O)[C@H](CCC(=O)O)NC(=O)[C@H](CCCNC(=N)N)NC(=O)[C@H](C)NC(=O)[C@H](C)NC(=O)[C@H](CCC(N)=O)NC(=O)[C@H](CCC(=O)O)NC(=O)[C@H](CCC(=O)O)NC(=O)[C@H](CC(C)C)NC(=O)[C@H](Cc1ccc(O)cc1)NC(=O)[C@H](CO)NC(=O)[C@H](CO)NC(=O)[C@@H](NC(=O)[C@H](CC(=O)O)NC(=O)[C@H](CO)NC(=O)[C@@H](NC(=O)[C@H](Cc1ccccc1)NC(=O)[C@@H](NC(=O)CNC(=O)[C@H](CCC(=O)O)NC(=O)[C@H](C)NC(=O)CCc1cnc[nH]1)[C@@H](C)O)[C@@H](C)O)C(C)C)C(=O)N[C@@H](C)C(=O)N[C@@H](Cc1c[nH]c2ccccc12)C(=O)N[C@@H](CC(C)C)C(=O)N[C@H](C(=O)N[C@@H](CCCCNc1c(NCCCCCN(O)C(=O)CCC(=O)NCCCCCN(O)C(=O)CCC(=O)NCCCCCN(O)C(C)=O)c(=O)c1=O)C(=O)NCC(=O)N[C@@H](CCCNC(=N)N)C(=O)N[C@@H](CCCCNc1c(NCCCCCN(O)C(=O)CCC(=O)NCCCCCN(O)C(=O)CCC(=O)NCCCCCN(O)C(C)=O)c(=O)c1=O)C(=O)NCC(=O)NCC(=O)N[C@@H](CO)C(=O)N[C@@H](CCCCNC(=O)COCCOCCNC(=O)COCCOCCNC(=O)CC[C@H](NC(=O)CCCCCCCCCCCCCCCCC(=O)O)C(=O)O)C(=O)O)C(C)C
fold potency loss (GLP1R; agonist, CRE luciferase reporter; BHK cells; metal-free DFO conjugate, together with: 1% HSA; baseline: parent peptide): 3.7

CC1(C)CN(CCCCC(=O)N[C@H](Cc2ccccc2)C(=O)N[C@H](Cc2ccccc2)C(=O)N[C@H](CCCCNC(=O)CCCCCCC(=O)NCCCC[C@H](NC(=O)N[C@@H](CCC(=O)O)C(=O)O)C(=O)O)C(=O)O)CC[N]2CC(C)(C)[S][Tc]2(=[O])[S]1 (stereo partly drawn) [technetium-99m labelled]
Bmax (Glutamate carboxypeptidase 2 (FOLH1, Homo sapiens, UniProt Q04609); radioligand, saturation binding; LNCaP; 1 h, 37 °C, together with: [99mTc]TcO-6): 4 ± 0.4 pmol/mg

Nc1ncnc2c1ncn2[C@@H]1O[C@H](COP(=O)(O)OP(=O)(O)OP(=O)(O)O)[C@@H](O)[C@H]1O
normalized current (P2X purinoceptor 7 (P2rx7, Rattus norvegicus, UniProt Q64663, Q143A); ion current, agonist, two-electrode voltage clamp; Xenopus laevis oocytes; 2 µM; baseline: highest concentration response): 0

CC[C@H](C)[C@H](NC(=O)[C@H](Cc1ccccc1)NC(=O)[C@H](CCC(=O)O)NC(=O)[C@H](CCCNC(=N)N)NC(=O)[C@H](C)NC(=O)[C@H](C)NC(=O)[C@H](CCC(N)=O)NC(=O)[C@H](CCC(=O)O)NC(=O)[C@H](CCC(=O)O)NC(=O)[C@H](CC(C)C)NC(=O)[C@H](Cc1ccc(O)cc1)NC(=O)[C@H](CO)NC(=O)[C@H](CO)NC(=O)[C@@H](NC(=O)[C@H](CC(=O)O)NC(=O)[C@H](CO)NC(=O)[C@@H](NC(=O)[C@H](Cc1ccccc1)NC(=O)[C@@H](NC(=O)CNC(=O)[C@H](CCC(=O)O)NC(=O)[C@H](C)NC(=O)CCc1cnc[nH]1)[C@@H](C)O)[C@@H](C)O)C(C)C)C(=O)N[C@@H](C)C(=O)N[C@@H](Cc1c[nH]c2ccccc12)C(=O)N[C@@H](CC(C)C)C(=O)N[C@H](C(=O)N[C@@H](CCCNC(=N)N)C(=O)NCC(=O)N[C@@H](CCCNC(=N)N)C(=O)N[C@@H](CCCCNC(=O)COCCOCCNC(=O)COCCOCCNC(=O)CC[C@H](NC(=O)CCCCCCCCCCCCCCCCC(=O)O)C(=O)O)C(=O)NCC(=O)NCC(=O)N[C@@H](CO)C(=O)N[C@@H](CCCCNc1c(NCCCCCN(O)C(=O)CCC(=O)NCCCCCN(O)C(=O)CCC(=O)NCCCCCN(O)C(C)=O)c(=O)c1=O)C(=O)NCC(=O)NCC(=O)N[C@@H](CO)C(=O)N[C@@H](CCCCNc1c(NCCCCCN(O)C(=O)CCC(=O)NCCCCCN(O)C(=O)CCC(=O)NCCCCCN(O)C(C)=O)c(=O)c1=O)C(=O)NCC(=O)NCC(=O)N[C@@H](CO)C(=O)N[C@@H](CCCCNc1c(NCCCCCN(O)C(=O)CCC(=O)NCCCCCN(O)C(=O)CCC(=O)NCCCCCN(O)C(C)=O)c(=O)c1=O)C(=O)NCC(=O)NCC(=O)N[C@@H](CO)C(=O)N[C@@H](CCCCNc1c(NCCCCCN(O)C(=O)CCC(=O)NCCCCCN(O)C(=O)CCC(=O)NCCCCCN(O)C(C)=O)c(=O)c1=O)C(=O)O)C(C)C
fold potency loss (GLP1R; agonist, CRE luciferase reporter; BHK cells; metal-free DFO conjugate, together with: 1% HSA; baseline: parent peptide): 7.1

Excerpt of the above:
CS(=O)(=O)c1ccc2nc(-c3ccccc3)c(Nc3ccc(C(=O)O)cc3)n2c1
selectivity ratio (Tyrosyl-DNA phosphodiesterase 2 (TDP2, Homo sapiens, UniProt O95551); gel-based fluorescence; baseline: TDP1 IC50 over TDP2 IC50): 26

CC[C@H](C)[C@H](NC(=O)[C@H](Cc1ccccc1)NC(=O)[C@H](CCC(=O)O)NC(=O)[C@H](CCCNC(=N)N)NC(=O)[C@H](C)NC(=O)[C@H](C)NC(=O)[C@H](CCC(N)=O)NC(=O)[C@H](CCC(=O)O)NC(=O)[C@H](CCC(=O)O)NC(=O)[C@H](CC(C)C)NC(=O)[C@H](Cc1ccc(O)cc1)NC(=O)[C@H](CO)NC(=O)[C@H](CO)NC(=O)[C@@H](NC(=O)[C@H](CC(=O)O)NC(=O)[C@H](CO)NC(=O)[C@@H](NC(=O)[C@H](Cc1ccccc1)NC(=O)[C@@H](NC(=O)CNC(=O)[C@H](CCC(=O)O)NC(=O)[C@H](C)NC(=O)CCc1cnc[nH]1)[C@@H](C)O)[C@@H](C)O)C(C)C)C(=O)N[C@@H](C)C(=O)N[C@@H](Cc1c[nH]c2ccccc12)C(=O)N[C@@H](CC(C)C)C(=O)N[C@H](C(=O)N[C@@H](CCCCNc1c(NCCCCCN(O)C(=O)CCC(=O)NCCCCCN(O)C(=O)CCC(=O)NCCCCCN(O)C(C)=O)c(=O)c1=O)C(=O)NCC(=O)N[C@@H](CCCNC(=N)N)C(=O)N[C@@H](CCCCNc1c(NCCCCCN(O)C(=O)CCC(=O)NCCCCCN(O)C(=O)CCC(=O)NCCCCCN(O)C(C)=O)c(=O)c1=O)C(=O)NCC(=O)NCC(=O)N[C@@H](CO)C(=O)N[C@@H](CCCCNC(=O)COCCOCCNC(=O)COCCOCCNC(=O)CC[C@H](NC(=O)CCCCCCCCCCCCCCCCC(=O)O)C(=O)O)C(=O)O)C(C)C
fold potency loss (GLP1R; agonist, CRE luciferase reporter; BHK cells; metal-free DFO conjugate, together with: 1% HSA; baseline: parent peptide): 3.7
